Published values from different studies.
Each numbered part is a random draw from the data of one study; scales do not carry over between parts.

Study 1
Target: RNA binding protein fox-1 homolog 2, RRM domain, GST-SBP tag (RBFOX2, Homo sapiens, UniProt O43251-10, residues 100-194)
Technique: RNA Bind-n-Seq
Form: RNA
Medium: in vitro
Concentration: 365 nM
Notes: natural RNA segment, single round, ends assumed
Baseline: no-protein control
Direction: higher = stronger binding
Quantity: RBNS enrichment (R)
Shared flanks, not repeated: GGGAGUUCUACAGUCCGACGAUC … UGGAAUUCUCGGGUGCCAA
Construct (chain): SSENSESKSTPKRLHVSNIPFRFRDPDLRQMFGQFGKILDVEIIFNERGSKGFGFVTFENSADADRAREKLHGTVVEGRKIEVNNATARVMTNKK
ACAUUCCAAUGGGGCGGAGCCUGAGCUAGGGGGUGUGGCCUGGCUGCUAGAGUUGUGGUGGCAGGGGCCCUGGCCCCGUCUCAGGAUUGCGCUCGCUUUCAUGGGACCAG: 0.561
CUUUAAAUGUUUAUGAGCUAGUUUAUGCCUCGGAAGACAUAAGGUUUCCCAUUCCAAUUUGAAUCUUUCUAUUUCUUUAGCAUCAUAUUGCUCUUCUUCUUUUAGACUGG: 0.686
CCUUGACAUAGUGAAGGACACUAUAAUGUAUGAGUUGUUGUCAGUUUUUAUUUAUUUUUUGUUAGGAAUUGGCCAAGAUCGCUAUGGAAAAAAUAAAAGAACAAACACAU: 0.921
UACAGACUCUCUGCUCUGUAUGGCGCCGCCUGCCAUGUCUGUCUUGGUGACUAUCCUGCCUUAAUCACUUUGCUUUAGGGCAACUCAUGGUGAUCUCUUCCAAGAUCUGU: 0.281
AUGGACAGACCCAGGUGAGGAGAGGCCUGGGGAUUGGGGAAGCUGUCAUCUCAGUGUUAAUAAUCAACUUGCUUCUAACACACUGGCUUAUCAGGGGAGGUCAUCCAGUC: 1.08
AAACUUCCAUAAGGGGCAGCAGUUGAGGUUGGGUAGUGCUGGGCCCAGCUGAGCUGGCCUGGGAAAUGGAGCCCACUGUCUGUGUCUCUUUUCUCCCACCUCAUCCUUCU: 0.45
UUUAAUUAUUCCUCCUAGUGAGCUUGCAAAGCAUAGACUAAAUUAAACCCUAAUGUUAGAUGUCAGUAUAAAGCCCUUAGAAUUUUUCCUCAAGGACCCCUUCUUCCUUU: 0.547
AAUGGCUUUGUGAAUGUAAAUAAGGGCAGUUCAGGGCCCUGAAGGAGUGAGAUGUUUUUCUAUAUUUUAGAACUAUUUUUGGAUAAAUUAUAUAUUUUCCUUCCUGAUUG: 1.26
UAGAUAUGAGUUGAGCACCCUGCCUUUCUUCCUAUCACCCCGCUUCUGCUGAUAGUCCGUGCUACAUUAAGGGACUGAGCAGAGAACACUCAGUCAAGUCCUGAUCCAUU: 0.981
CCACCGCACCAGGACUGCGCCUGCUGAGAGCCAUCCCACUCCCUUUCCCCUCUUCCCUGUCUUCCCCACCUUCCCCCAACUACCCGGGCCUGACCCGGCCCCUACCAGCC: 2.97
AAGAAAGUGCUCCUGAGAAGGCUCUUGCCAGAAGCCUGAUGUGAGUGUGUGGCACCUGUGAUGGCAGGGCUGUGAGCUGGGCUUCUGUCCUCCUCUGUGUCCCGGCAUGG: 4.98
AGUUAUAUAACUUUAUUAUGAAUAUGCUGUGAUCUUCAUUUGAUGGAACUGUGCAAGAAAAGAACAAGGAAAAAUGGAUGUUUCGCUGCAGGAUUAAGUUACAAUUAUCU: 0.443

Study 2
Target: Phosphate system positive regulatory protein PHO4, full length, GST-tagged (PHO4, Saccharomyces cerevisiae, UniProt P07270, residues 1-312)
Technique: competition protein-binding microarray
Form: double-stranded DNA, one strand shown
Medium: in vitro
Concentration: 2 µM
Notes: whole 60-bp probe, lowest competitor level
Added: Cbf1 competitor, 0.05 µM
Direction: higher = stronger binding
Quantity: fluorescence intensity
Shared flanks, not repeated: … GTCTTGATTCGCTTGACGCTGCTG
Residues (chain): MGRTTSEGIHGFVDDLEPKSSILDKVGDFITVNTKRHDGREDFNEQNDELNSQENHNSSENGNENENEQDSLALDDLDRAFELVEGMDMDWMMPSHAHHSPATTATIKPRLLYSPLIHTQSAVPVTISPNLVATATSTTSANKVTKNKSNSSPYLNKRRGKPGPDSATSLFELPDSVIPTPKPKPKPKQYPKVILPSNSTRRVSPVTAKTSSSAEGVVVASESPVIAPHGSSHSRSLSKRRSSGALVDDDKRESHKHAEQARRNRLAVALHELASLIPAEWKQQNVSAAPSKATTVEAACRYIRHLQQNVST
CATACCCAACCTTGCCCAGTGGGTGAAGATATTTGT: 4250 a.u.
TCATCTCTAAGAGTTGCCGTGCCGATCCATCCGCTT: 4510 a.u.
CAAAAGAAAAAGTTTGACGTGATGGATCCATCTAAC: 3250 a.u.
GTAAAGGTAAACCATCACGTGCTTTCGAAGATAAAT: 14400 a.u.
TGCGCAACAACTTGGATAGTGGGTGTATGTCTAGAA: 4640 a.u.
TCTCCTTGCTCGTACCATGTGGTTTCATCTCAGGGT: 11000 a.u.
AAATTACTAAGTTGACGTGTGGGTGACGCCGTATGA: 5550 a.u.
TCTCAATTATTGACTCACATGCCTCCTGGTAATACG: 8440 a.u.
CCACTACAAAACTTCCACGTTAGAAAGGTTAAGTTA: 6110 a.u.
CTTTCCCGATCTTGCCCTGTGGGTGTAGCACATTTG: 4850 a.u.
GTCTTCGTCGTCGACACCGTGATGGGATTGTAGTTC: 5370 a.u.
AGAGAGAACTTTGGACACGTTTATAAAAATTGACGG: 12300 a.u.
ATGCCAAGTAAGGTTTTTCGGATTTAGGGTGGCGTC: 3400 a.u.
CGTCCTAGCGATTGATGGGTGGGTGCCATGAGGAAG: 6490 a.u.
GTACTGTTTCATTTAAACGTGTTTTCACTTGATCCA: 10100 a.u.
CGGAGAGGACCTACCCACGTGCCAGAATTGTTTCAA: 17800 a.u.
TCCCAAGGCCACCGTCACGATTGAAGGTTCCCGGTC: 3810 a.u.
GTCTTGTCTCATTGTCACCAAACTTTCCCCACTTCA: 4410 a.u.
CATACCCAACCTTTTCACGTGAGTTAAGATATTTGT: 12500 a.u.
GTCTTGTCTCATTGTCACCCCACTTTCCCCACTTCA: 4680 a.u.
CTAACGAAGGTTTTTCACGTGCGATACAAGCCAAGT: 12600 a.u.
CCTAGAGAGCGGCACCACGCGGACTCGACGGCCGCG: 8750 a.u.
AAAGCGGTAATTTTTCACGTGCGTTCACATATCTAT: 15800 a.u.
TGCGCAACAACTTGTCACCCGACTTTATGTCTAGAA: 3450 a.u.
CGTCCTAGCGATTGACCTGTGGGTGCCATGAGGAAG: 6210 a.u.

Study 3
Target: Sal-like protein 4, full length isoform B (SALL4, Homo sapiens, UniProt Q9UJQ4-2, residues 1-616)
Technique: universal PBM
Form: double-stranded DNA, one strand shown
Medium: in vitro
Concentration: not given
Notes: 8-mer, flanks averaged, mean of replicates
Direction: higher = stronger binding
Quantity: E-score
Construct (chain): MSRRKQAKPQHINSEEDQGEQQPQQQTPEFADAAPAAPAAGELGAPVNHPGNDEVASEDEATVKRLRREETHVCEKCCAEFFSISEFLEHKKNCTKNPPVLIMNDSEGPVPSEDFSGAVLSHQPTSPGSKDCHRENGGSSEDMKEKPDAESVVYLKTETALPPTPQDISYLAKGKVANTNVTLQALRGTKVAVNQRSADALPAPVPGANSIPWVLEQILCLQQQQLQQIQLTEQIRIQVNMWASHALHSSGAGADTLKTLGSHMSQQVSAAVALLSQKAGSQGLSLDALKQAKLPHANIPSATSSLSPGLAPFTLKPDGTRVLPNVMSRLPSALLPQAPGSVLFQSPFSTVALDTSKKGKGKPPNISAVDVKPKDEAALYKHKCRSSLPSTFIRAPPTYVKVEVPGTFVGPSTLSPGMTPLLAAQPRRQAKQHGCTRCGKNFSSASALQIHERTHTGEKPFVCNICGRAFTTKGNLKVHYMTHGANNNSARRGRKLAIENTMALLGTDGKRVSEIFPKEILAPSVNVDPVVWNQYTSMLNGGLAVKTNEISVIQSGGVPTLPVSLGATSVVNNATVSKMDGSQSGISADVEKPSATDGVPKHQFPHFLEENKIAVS
ATGTCCTC: 0.138
GTCTCACA: 0.0351
AGGCCTAT: 0.068
CTGCATGA: -0.157
GGAGCAAC: -0.222
AGGTATCA: 0.111
AATGGTAT: 0.229
AACTCGTA: 0.142
CGGCCCGC: -0.362
ACTACAAA: 0.203
CAAGGTAG: -0.0961
ATGAACGC: 0.0882
TACGCCAA: 0.0762
CAGAGCAA: -0.05
CGCTTTCC: -0.22
ACCAACGA: -0.111
ACATACCG: -0.0536
CGCTCTAA: -0.135
AATACTAT: 0.295
GTATTGAC: 0.041
ACGGATTG: -0.149
GACGCCTA: -0.143
TGACCTAA: 0.0829
AACGGAGC: -0.225

Study 4
Target: Max-binding protein MNT, bHLH-zipper, MAX partner unstated (MNT, Homo sapiens, UniProt Q99583, residues 220-300)
Technique: protein-binding microarray
Form: double-stranded DNA, one strand shown
Medium: in vitro
Concentration: not given
Notes: k-mer, scored over probes, only values ≥0.25
Direction: higher = stronger binding
Quantity: E-score
Target sequence (chain): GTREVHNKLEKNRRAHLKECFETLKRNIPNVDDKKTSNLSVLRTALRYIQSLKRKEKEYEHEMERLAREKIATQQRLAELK
CAACCCAC: 0.275
ACGCGCGT: 0.398
ATGTGTCG: 0.284
TGCATGCA: 0.368
ACGTGCTC: 0.457
GCATGCCA: 0.355
GCACGTCA: 0.266
CACGAGGG: 0.459
CATGGGCG: 0.275
CCACGCTC: 0.372
GTGTCCCA: 0.292
GGTGGGGA: 0.35
CACCTGCA: 0.269
AGTCCATG: 0.274
CTTGGGGA: 0.321
GTGTTGCA: 0.269
ACGCACGT: 0.441
ATACATGC: 0.317

Study 5
Target: PABPC1L2, full length, GST fusion (mouse, UniProt A0ABA7IW68)
Technique: RNAcompete
Form: RNA
Medium: in vitro
Concentration: 20 nM
Notes: 7-mer, probes averaged, single round
Baseline: mean of 7-mers
Direction: higher = stronger binding
Quantity: 7-mer Z-score
Target sequence (chain): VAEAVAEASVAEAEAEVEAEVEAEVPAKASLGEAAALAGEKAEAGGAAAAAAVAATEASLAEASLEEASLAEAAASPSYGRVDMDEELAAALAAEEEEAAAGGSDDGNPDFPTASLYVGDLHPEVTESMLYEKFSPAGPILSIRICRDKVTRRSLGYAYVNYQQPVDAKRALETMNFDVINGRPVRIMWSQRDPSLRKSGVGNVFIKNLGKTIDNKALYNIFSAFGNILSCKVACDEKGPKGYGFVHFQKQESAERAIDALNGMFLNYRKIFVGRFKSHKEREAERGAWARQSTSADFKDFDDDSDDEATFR
GCAGAGA: 0.102
UCUCUGG: -0.224
AGAGUGG: -0.0156
UCAGAAA: 1.68
CUCUGUG: -0.222
CUGCUGU: -0.311
GCGACCC: 0.000733
CUGUCAC: -0.204
UCCAGCU: -0.327
AGACUCU: -0.275
GAACUCA: -0.103
CAAAGGA: 0.354
GACCAUC: -0.269
ACUCGGU: -0.191
CCGCUCC: -0.371
CCUAAGC: -0.354
CUGUGCC: -0.351
GCUUUCG: -0.36
GGUCUCA: -0.108
GGAGCUU: 0.142
GCUUAUG: -0.217
UGCUCUG: -0.32
GAGUUGU: -0.342
CUCGAAC: -0.376
CGGGGCG: -0.0174

Some of these lines once more (study 3):
GGAGCAAC: -0.222
AGGTATCA: 0.111
AATGGTAT: 0.229
AACTCGTA: 0.142
CGGCCCGC: -0.362
ACTACAAA: 0.203
CAAGGTAG: -0.0961
